Measured values collected from several papers.
Numbered parts are unrelated; each lists some results of a single study. Changes are numbered by the printed parent chain.

Study 1
Target: Histone acetyltransferase KAT6A, both winged helices, GST fusion (KAT6A, Homo sapiens, UniProt Q92794, residues 1-181)
Method: protein binding microarray
Molecule type: double-stranded DNA, one strand shown
Medium: in vitro
Concentration: not given
Notes: 8-mer, flanks averaged, mean of 2 arrays, mostly near background
Relative to: not given
Reading: higher = stronger binding
Quantity: E-score
Residues (chain): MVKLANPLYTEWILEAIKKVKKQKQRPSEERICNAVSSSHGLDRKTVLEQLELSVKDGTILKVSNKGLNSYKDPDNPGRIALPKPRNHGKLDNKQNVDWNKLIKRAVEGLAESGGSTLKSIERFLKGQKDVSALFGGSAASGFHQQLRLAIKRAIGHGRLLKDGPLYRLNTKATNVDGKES
AACTCTTA: -0.0744
CAGCTTCC: 0.0252
ACTTAAGC: 0.0504
AGATTGCC: -0.0872
TACCAAAA: -0.00939
CGGTTCAA: 0.209
GACATACA: 0.115
CTTCAGTC: -0.251
CCGACGCA: 0.247

Study 2
Target: CCND3, cyclin fold, Cln2 fusion (human)
Method: yeast growth competition, sequencing
Medium: yeast
Notes: weak parent motif
Relative to: not given
Reading: higher = stronger binding
Quantity: normalised enrichment score
Starting sequence: CDC6 docking peptide (human); TLKGRRLVFDNQL; partner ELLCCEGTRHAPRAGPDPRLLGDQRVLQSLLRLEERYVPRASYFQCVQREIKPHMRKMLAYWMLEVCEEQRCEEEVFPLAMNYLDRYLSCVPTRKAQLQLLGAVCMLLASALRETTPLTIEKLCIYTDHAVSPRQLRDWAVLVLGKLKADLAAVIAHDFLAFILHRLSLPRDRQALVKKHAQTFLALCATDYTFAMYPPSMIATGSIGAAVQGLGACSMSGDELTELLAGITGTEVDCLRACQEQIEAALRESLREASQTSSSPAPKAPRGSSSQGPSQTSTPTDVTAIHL
R5C: 0.0556
V8P: 0.128
R6G: 0.0277
L13P: 0.169
D10I: 0.178
L7G: 0.0972
K3G: 0.0909
G4W: 0.0863
V8Q: 0.135

Study 3
Target: ABI1, truncated, D143A, DHFR fusion (Arabidopsis thaliana)
Method: DHFR PCA, deep sequencing
Medium: yeast
Notes: methotrexate growth selection, single substitutions
With: (+)-ABA 200 µM
Relative to: wild-type fitted maximum
Reading: higher = stronger binding
Quantity: relative binding score
Starting sequence: PYL1, truncated, DHFR fusion (Arabidopsis thaliana); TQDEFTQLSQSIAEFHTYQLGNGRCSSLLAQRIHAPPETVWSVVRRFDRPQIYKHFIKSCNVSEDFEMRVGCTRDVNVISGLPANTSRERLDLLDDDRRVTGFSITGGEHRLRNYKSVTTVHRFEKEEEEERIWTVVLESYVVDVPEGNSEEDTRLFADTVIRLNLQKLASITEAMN
A175Y: 90%
T173H: 54.5%
F47V: -3.98%
A170V: 66.9%
V145G: 8.09%
F56E: 17.2%
E89Y: -18.5%
T86D: 98.6%
E174N: 84.3%
Q167A: 100%
H34P: 84%
L112W: -12.8%
S9G: 96.7%
R163T: 90.4%

Single results of other studies
PhoQ, residues 284 288 289 292 302 303 ALAMYF  fold induction (PhoP, residues 12 14 15 18 19 LHHVQ (Escherichia coli, UniProt P23836); Sort-seq, item: YFP reporter; E. coli; PhoQ-PhoP variant library, with: 10 µM Mg2+; relative to: high Mg2+ state, higher = stronger signaling): 0.72

Some of these lines once more (study 2):
G4W: 0.0863
K3G: 0.0909
V8Q: 0.135
